Assay results of several laboratories.
Parts stem from different laboratories: compare values within a part only. Several values in a cell are separate wells, animals, samples, runs or records.
UniProt Q8WTQ7, sequence (whole entry, looked up): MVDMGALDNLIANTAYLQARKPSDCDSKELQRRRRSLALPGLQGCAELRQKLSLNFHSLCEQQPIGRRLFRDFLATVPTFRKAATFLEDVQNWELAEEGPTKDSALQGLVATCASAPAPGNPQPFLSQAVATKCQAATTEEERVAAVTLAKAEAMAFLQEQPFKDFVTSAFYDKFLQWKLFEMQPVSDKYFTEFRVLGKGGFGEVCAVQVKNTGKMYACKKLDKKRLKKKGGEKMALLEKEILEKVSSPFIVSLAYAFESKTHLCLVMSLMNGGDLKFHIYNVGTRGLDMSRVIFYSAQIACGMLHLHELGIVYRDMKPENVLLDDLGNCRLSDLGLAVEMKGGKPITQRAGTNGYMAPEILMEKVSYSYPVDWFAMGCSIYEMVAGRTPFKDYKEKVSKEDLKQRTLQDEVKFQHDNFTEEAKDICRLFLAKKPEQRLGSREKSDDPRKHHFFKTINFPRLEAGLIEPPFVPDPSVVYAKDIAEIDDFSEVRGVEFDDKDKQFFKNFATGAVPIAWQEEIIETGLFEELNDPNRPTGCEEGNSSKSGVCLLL
UniProt Q96PY6, sequence (whole entry, looked up): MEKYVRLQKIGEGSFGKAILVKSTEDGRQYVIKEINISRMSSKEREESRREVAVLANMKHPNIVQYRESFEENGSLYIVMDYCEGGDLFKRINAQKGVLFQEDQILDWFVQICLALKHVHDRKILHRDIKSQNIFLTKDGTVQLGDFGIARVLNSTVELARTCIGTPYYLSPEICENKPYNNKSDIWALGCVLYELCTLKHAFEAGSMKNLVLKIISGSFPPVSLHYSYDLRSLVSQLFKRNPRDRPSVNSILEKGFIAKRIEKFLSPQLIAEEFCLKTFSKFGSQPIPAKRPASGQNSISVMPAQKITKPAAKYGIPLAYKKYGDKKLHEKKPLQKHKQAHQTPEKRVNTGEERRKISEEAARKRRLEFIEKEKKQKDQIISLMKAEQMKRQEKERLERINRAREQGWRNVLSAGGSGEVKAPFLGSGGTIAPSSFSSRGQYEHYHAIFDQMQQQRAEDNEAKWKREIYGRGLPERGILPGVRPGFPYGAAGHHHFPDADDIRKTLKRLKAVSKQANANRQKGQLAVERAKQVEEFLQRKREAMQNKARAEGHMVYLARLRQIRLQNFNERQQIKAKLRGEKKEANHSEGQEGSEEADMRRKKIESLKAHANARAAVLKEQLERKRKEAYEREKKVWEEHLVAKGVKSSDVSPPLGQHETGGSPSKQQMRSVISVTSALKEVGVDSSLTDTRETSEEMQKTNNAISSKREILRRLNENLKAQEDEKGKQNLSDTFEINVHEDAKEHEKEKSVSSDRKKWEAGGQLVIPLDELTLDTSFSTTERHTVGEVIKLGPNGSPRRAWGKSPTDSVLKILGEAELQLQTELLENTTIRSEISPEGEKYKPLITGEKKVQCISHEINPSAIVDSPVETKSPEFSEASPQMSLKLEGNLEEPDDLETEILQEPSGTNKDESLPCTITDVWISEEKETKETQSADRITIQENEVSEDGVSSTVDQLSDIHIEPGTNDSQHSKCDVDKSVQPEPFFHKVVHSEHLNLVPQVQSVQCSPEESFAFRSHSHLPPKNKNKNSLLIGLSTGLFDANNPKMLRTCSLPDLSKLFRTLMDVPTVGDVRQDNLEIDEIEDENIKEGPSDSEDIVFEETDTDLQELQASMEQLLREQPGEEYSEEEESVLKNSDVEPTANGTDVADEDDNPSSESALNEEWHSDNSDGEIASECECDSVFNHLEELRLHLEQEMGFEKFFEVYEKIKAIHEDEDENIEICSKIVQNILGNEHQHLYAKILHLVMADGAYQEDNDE
UniProt Q99558, sequence (whole entry, looked up): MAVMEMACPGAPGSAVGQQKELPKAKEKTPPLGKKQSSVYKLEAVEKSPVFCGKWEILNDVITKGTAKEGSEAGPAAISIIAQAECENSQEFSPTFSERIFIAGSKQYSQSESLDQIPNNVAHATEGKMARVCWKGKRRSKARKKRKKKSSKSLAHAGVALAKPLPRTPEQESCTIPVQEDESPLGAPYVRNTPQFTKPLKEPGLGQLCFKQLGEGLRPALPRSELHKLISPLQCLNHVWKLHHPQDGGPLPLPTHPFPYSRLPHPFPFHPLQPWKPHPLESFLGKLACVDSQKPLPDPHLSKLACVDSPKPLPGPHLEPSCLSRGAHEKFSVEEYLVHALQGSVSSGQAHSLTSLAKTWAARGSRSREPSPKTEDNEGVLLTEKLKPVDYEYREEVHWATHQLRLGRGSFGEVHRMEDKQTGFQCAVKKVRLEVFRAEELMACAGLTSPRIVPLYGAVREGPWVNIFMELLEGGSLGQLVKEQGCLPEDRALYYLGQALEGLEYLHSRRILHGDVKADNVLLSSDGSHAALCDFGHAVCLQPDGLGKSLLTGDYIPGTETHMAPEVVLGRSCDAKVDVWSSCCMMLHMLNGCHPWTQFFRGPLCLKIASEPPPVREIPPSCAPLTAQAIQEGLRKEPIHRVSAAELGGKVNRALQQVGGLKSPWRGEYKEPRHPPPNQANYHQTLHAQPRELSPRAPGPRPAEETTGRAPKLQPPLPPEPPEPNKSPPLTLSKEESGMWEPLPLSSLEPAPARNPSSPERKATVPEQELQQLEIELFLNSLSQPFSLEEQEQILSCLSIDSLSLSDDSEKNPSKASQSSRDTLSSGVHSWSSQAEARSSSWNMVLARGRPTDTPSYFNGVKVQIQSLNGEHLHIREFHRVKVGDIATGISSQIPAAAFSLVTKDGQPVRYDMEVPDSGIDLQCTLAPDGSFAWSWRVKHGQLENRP
UniProt Q9UKI8, sequence (whole entry, looked up): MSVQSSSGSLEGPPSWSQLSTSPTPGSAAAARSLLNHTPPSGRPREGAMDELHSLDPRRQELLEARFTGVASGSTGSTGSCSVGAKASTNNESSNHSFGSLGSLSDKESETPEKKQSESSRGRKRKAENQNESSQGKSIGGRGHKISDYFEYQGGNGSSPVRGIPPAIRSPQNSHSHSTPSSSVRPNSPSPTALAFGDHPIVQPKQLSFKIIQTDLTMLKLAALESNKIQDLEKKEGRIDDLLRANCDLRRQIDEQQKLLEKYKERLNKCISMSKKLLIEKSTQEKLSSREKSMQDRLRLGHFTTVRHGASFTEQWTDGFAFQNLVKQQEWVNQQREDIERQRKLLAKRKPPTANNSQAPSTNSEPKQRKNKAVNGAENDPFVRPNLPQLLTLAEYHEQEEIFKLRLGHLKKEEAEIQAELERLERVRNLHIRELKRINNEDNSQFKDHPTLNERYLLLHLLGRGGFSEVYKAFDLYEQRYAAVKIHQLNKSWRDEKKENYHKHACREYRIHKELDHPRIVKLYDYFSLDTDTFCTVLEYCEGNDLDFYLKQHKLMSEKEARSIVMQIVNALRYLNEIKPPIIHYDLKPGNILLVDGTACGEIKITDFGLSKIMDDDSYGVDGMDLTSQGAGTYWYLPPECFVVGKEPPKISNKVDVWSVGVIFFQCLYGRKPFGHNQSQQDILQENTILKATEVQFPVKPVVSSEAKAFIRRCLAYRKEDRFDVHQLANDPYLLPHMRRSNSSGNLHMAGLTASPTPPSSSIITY
UniProt P51617, sequence (whole entry, looked up): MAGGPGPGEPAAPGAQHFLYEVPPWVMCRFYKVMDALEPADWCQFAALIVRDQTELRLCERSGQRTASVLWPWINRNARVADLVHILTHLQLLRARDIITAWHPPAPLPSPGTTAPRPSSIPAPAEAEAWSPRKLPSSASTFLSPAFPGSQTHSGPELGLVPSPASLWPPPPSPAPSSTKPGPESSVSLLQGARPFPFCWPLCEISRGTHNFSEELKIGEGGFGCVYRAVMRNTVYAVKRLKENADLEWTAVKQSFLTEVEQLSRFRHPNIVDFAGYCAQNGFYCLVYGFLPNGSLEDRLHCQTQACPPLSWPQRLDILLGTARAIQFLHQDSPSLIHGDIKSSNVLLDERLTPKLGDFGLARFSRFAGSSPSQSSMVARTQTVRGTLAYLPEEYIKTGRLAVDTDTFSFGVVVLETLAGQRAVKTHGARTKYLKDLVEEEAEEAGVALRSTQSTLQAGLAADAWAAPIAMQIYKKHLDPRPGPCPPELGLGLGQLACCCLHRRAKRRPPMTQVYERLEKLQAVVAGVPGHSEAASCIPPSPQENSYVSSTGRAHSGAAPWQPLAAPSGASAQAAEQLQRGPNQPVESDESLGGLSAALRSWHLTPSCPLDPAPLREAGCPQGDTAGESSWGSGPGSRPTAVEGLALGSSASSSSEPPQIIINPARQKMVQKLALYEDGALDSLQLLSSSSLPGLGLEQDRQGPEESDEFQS
UniProt Q9HC98, sequence (whole entry, looked up): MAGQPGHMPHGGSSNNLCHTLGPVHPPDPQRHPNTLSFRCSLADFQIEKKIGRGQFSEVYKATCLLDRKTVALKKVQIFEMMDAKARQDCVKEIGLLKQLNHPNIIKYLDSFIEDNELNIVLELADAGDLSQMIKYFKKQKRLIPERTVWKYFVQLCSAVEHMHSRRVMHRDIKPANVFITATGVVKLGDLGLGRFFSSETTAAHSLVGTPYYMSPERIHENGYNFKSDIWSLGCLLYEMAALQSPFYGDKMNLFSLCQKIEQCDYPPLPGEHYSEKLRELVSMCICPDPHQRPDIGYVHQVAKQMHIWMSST
UniProt Q00526, sequence (whole entry, looked up): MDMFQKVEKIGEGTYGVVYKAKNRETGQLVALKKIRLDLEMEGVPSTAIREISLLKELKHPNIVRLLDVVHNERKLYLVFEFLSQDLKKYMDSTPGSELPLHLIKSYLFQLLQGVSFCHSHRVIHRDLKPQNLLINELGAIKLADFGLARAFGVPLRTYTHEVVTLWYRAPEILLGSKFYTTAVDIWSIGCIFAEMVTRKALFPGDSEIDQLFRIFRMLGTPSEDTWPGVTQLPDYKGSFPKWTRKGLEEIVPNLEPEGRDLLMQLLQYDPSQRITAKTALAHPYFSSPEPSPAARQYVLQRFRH

Block 1
Compound: CC(C)C[C@@H]1NC(=O)[C@@H](N(C)C(=O)[C@H](CC2CCC2)NC(=O)[C@@H]2C[C@@H](F)CN2C(=O)C2(C(F)(F)F)CC(F)(F)C2)CCCCNC(=O)C2(CC2)NC(=O)[C@H](Cc2cc(Cl)ccc2Cl)N(C)C1=O
Measurement: cell count
HCC4006; Vi-Cell counting; 200 nM, 6 days; relative to: DMSO: 0.516 and 0.594 and 0.45
HCC4006; Vi-Cell counting; 600 nM, 6 days; relative to: DMSO: 0.257 and 0.333 and 0.273
A549; Vi-Cell counting; 20 nM, 6 days; relative to: DMSO: 0.978 and 0.697 and 0.914
NCI-H446 sgCtrl; dose-response; 20 nM, 6 d; relative to: DMSO-treated: 0.0431 and 0.0717 and 0.0845
NCI-H82; Vi-Cell counting; 200 nM, 6 days; relative to: DMSO: 1 and 0.98 and 0.82

Block 2
SMILES: CN(C(=O)c1ccccc1)c1cc(N(C)c2ccc3c(c2)CCc2ccc(C(=O)NCCN4CCOCC4)cc2C3=O)ccc1F
Observed: cell-free assay
Technique: competition with immobilised ligand
Tested at: 1 µM
Measurement: remaining binding
CDK3 (Homo sapiens, UniProt Q00526): 100%
Ribosomal protein S6 kinase alpha-1, N-terminal kinase domain (RPS6KA1, Homo sapiens, UniProt Q15418): 87%
TLK1 (Homo sapiens, UniProt Q9UKI8): 100%
EGFR (Homo sapiens, UniProt P00533): 100%
Non-receptor tyrosine-protein kinase TYK2, JH2 (TYK2, Homo sapiens, UniProt P29597): 100%
GRK7 (Homo sapiens, UniProt Q8WTQ7): 100%
FGFR3 (Homo sapiens, UniProt P22607, G697C): 80%
IRAK1 (Homo sapiens, UniProt P51617): 100%
HUNK (Homo sapiens, UniProt P57058): 100%

Block 3
Medium: 1,9-decadiene/PBS
pH: 7.4
Measurement: logD
CC(C)C[C@@H]1NC(=O)[C@H](C(C)C)NC(=O)[C@@H](CC(C)C)NC(=O)[C@@H](CC(C)C)NC(=O)[C@@H](CCC(=O)N2CCCC2)NC(=O)[C@H](CC(C)C)NC(=O)[C@@H](CC(C)C)NC1=O: 0.731
CC(C)C[C@@H]1NC(=O)[C@H](C)NC(=O)[C@H](CC(C)C)NC(=O)[C@@H](CC(C)C)NC(=O)[C@H](CC(C)C)NC(=O)[C@@H](C)NC(=O)[C@@H](CC(C)C)NC1=O: -0.536
CC(C)C[C@@H]1NC(=O)[C@H](C)NC(=O)[C@H](Cc2cscn2)NC(=O)[C@H](C)NC(=O)[C@@H](CCC(=O)N2CCCC2)NC(=O)[C@H](CC(C)C)NC(=O)[C@@H](CC(C)C)NC1=O: -2.86
CC(C)C[C@@H]1NC(=O)[C@H](Cc2cscn2)NC(=O)[C@H](C)NC(=O)[C@@H](CC(C)C)NC(=O)[C@@H](CCC(=O)N2CCCC2)NC(=O)[C@H](CC(C)C)NC(=O)[C@@H](CC(C)C)NC1=O: -0.927
CC(C)C[C@@H]1NC(=O)[C@H](C)NC(=O)[C@@H](CC(C)C)NC(=O)[C@H](C)NC(=O)[C@@H](CCC(=O)N2CCCC2)NC(=O)[C@H](CC(C)C)NC(=O)[C@@H](CC(C)C)NC1=O: -1.4
CC(C)C[C@@H]1NC(=O)[C@H](CC(C)C)NC(=O)[C@@H](C(C)C)NC(=O)[C@H](CC(C)C)NC(=O)[C@@H](Cc2cscn2)NC(=O)[C@H](CCC(=O)N2CCCC2)NC(=O)[C@H](C)NC1=O: -2.58
CC(C)C[C@@H]1NC(=O)[C@H](CC(C)C)NC(=O)[C@@H](CC(C)C)NC(=O)[C@H](Cc2cscn2)NC(=O)[C@@H](Cc2cscn2)NC(=O)[C@H](Cc2cscn2)NC(=O)[C@H](CCC(=O)N2CCCC2)NC1=O: -2.57

Block 4
SMILES: Cc1nc(Nc2ncc(C(=O)Nc3c(C)cccc3Cl)s2)cc(N2CCN(CCO)CC2)n1
Observed: enzyme activity
Action: inhibitor
Tested at: 0.5 µM
Relative to: control
Measurement: remaining activity
ARAF (Homo sapiens, UniProt P10398): 33.8%
TBK1 (Homo sapiens, UniProt Q9UHD2): 90.8%
WEE1 (Homo sapiens, UniProt P30291): 92.6%
GRK7 (Homo sapiens, UniProt Q8WTQ7): 103%
GSK3B (Homo sapiens, UniProt P49841): 97.3%
ULK3 (Homo sapiens, UniProt Q6PHR2): 103%
NEK1 (Homo sapiens, UniProt Q96PY6): 89.8%
MAPK3 (Homo sapiens, UniProt P27361): 100%
CSNK1G3 (Homo sapiens, UniProt Q9Y6M4): 97.2%
TAOK2 (Homo sapiens, UniProt Q9UL54): 86.7%
MAP3K14 (Homo sapiens, UniProt Q99558): 97.5%
NEK6 (Homo sapiens, UniProt Q9HC98): 86.2%
JAK3 (Homo sapiens, UniProt P52333): 93.4%
MERTK (Homo sapiens, UniProt Q12866): 103%

A few entries again (block 1):
NCI-H446 sgCtrl; dose-response; 20 nM, 6 d; relative to: DMSO-treated: 0.0431 and 0.0717 and 0.0845
A549; Vi-Cell counting; 20 nM, 6 days; relative to: DMSO: 0.978 and 0.697 and 0.914
HCC4006; Vi-Cell counting; 200 nM, 6 days; relative to: DMSO: 0.516 and 0.594 and 0.45
NCI-H82; Vi-Cell counting; 200 nM, 6 days; relative to: DMSO: 1 and 0.98 and 0.82
HCC4006; Vi-Cell counting; 600 nM, 6 days; relative to: DMSO: 0.257 and 0.333 and 0.273
